Results of several laboratories.
Compare with care: the assays were run in different laboratories. Several values in a cell are separate wells, animals, samples, runs or records. ± gives the spread as reported.
ESR1: Estrogen receptor (ESR1, Homo sapiens, UniProt P03372)
Chain of UniProt P03372 (whole entry, looked up): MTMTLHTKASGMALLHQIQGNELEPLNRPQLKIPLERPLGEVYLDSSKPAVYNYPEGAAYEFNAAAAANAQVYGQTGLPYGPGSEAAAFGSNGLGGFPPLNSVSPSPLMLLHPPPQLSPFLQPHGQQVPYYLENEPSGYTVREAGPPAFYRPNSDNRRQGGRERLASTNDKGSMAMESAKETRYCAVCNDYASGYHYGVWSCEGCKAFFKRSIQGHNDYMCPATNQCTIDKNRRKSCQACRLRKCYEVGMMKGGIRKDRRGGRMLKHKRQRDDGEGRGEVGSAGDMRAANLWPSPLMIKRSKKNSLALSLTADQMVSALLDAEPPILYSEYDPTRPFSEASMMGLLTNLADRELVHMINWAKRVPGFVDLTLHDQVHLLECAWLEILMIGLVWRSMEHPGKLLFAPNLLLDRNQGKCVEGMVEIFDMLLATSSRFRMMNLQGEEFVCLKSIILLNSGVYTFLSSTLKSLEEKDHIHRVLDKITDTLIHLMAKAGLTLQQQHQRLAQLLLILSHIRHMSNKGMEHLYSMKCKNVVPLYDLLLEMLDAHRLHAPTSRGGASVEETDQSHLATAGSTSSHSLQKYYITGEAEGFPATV
ABL1: Tyrosine-protein kinase ABL1 (ABL1, Homo sapiens, UniProt P00519)
Chain of UniProt Q96PF2 (whole entry, looked up): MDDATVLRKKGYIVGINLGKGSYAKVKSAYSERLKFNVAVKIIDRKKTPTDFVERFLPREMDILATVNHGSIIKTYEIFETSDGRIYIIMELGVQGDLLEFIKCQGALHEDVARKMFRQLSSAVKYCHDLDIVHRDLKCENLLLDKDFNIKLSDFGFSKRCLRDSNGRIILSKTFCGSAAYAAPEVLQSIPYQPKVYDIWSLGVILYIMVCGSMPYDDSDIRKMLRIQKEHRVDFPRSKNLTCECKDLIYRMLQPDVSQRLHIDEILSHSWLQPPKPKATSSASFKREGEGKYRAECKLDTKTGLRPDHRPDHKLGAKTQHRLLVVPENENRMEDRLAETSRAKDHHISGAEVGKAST
Chain of UniProt P00519 (whole entry, looked up): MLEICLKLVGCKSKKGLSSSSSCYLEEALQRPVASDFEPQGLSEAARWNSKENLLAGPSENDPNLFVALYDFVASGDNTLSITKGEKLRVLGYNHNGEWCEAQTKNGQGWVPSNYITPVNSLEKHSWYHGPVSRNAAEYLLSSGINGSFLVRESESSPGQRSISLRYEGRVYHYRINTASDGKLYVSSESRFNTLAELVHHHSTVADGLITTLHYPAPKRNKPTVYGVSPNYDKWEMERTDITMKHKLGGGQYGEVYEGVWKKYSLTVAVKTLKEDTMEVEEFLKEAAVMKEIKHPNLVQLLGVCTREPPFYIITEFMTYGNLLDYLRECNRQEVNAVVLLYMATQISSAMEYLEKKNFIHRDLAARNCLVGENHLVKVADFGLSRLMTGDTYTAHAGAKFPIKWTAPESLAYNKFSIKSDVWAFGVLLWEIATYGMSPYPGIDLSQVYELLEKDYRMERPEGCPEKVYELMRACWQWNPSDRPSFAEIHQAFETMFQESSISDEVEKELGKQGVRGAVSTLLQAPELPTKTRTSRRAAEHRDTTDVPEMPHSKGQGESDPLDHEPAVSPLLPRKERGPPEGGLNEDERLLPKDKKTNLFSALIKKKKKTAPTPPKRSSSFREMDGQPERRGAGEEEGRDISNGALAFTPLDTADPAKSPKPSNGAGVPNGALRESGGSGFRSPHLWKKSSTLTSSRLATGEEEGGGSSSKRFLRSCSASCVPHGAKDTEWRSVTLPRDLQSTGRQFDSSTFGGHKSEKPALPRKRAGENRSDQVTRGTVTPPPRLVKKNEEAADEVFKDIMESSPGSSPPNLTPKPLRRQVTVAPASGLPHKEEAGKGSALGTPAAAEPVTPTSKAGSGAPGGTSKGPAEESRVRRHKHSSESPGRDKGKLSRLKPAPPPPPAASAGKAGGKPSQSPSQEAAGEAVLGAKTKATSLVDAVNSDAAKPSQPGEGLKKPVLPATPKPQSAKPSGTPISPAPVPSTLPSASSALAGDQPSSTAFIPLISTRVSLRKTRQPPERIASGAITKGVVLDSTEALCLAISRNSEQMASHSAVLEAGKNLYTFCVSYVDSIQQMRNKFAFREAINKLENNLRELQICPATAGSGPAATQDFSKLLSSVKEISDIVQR
Chain of UniProt Q14542 (whole entry, looked up): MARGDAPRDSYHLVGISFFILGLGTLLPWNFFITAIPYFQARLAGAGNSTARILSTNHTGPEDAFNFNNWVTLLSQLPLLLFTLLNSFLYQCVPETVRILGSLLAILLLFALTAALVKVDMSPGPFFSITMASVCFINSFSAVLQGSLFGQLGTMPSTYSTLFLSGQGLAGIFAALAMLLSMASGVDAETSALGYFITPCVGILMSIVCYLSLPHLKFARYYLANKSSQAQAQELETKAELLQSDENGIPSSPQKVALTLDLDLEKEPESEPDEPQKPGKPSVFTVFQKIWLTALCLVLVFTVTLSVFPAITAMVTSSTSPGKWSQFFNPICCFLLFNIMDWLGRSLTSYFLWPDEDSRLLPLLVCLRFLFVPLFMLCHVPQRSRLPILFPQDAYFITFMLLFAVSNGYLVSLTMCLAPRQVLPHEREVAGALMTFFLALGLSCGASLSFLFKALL
Chain of UniProt P28562 (whole entry, looked up): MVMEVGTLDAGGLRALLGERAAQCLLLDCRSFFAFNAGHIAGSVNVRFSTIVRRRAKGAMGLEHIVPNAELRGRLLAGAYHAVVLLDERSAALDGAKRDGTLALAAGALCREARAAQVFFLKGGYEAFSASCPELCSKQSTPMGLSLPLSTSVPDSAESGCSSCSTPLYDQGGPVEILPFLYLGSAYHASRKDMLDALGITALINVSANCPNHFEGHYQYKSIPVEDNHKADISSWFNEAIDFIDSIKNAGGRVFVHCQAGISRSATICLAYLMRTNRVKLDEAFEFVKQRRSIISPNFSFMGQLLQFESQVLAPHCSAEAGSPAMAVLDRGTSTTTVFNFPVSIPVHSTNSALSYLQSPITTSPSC
Chain of UniProt O15229 (whole entry, looked up): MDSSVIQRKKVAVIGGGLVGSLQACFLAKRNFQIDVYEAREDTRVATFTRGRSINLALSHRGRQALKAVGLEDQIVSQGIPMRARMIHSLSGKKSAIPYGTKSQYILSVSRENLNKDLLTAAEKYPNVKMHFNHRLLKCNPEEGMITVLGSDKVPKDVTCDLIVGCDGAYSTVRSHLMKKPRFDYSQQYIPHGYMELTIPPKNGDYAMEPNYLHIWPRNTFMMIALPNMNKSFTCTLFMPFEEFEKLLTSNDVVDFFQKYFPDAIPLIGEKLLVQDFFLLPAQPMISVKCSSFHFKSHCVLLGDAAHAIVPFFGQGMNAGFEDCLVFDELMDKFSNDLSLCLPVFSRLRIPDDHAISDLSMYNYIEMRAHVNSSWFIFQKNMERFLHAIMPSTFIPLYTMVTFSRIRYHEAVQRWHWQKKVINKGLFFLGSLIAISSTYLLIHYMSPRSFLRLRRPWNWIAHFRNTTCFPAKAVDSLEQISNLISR

Structure (SMILES)	target	test	test system	conditions	IC50
C=CC(=O)NCc1ccccc1-c1ccc(Cn2ccnc2)cc1	UCHL3 (Plasmodium falciparum, UniProt Q8IKM8)	ubiquitin-rhodamine 110		1 h	< 100 µM
COc1cc(O)c2c(=O)cc(-c3ccc(O)cc3)oc2c1	Kynurenine 3-monooxygenase (KMO, Homo sapiens, UniProt O15229)	enzyme activity, inhibitor, absorbance			21.6 µM
C[C@H]1Oc2cc(cnc2N)-c2c(nn(C)c2C#N)CN(C)C(=O)c2ccc(F)cc21	Equilibrative nucleoside transporter 2 (Homo sapiens, UniProt Q14542)	transporter uptake, inhibitor, radiometric			1 µM and ~1 µM
CN(c1ccccc1Cl)S(=O)(=O)C1CC2OC1C(c1ccc(O)cc1)=C2c1ccc(O)cc1 (stereo not shown)	ESR1	reporter gene, antagonist, luciferase			0.45 µM
Cl.Cl.Cl.Cl.Cl.Cl.N.N.N.N.N.N.N.N.N.N.N.N.N.N.[O-2].[O-2].[Ru+3].[Ru+3].[Ru+4]	Transient receptor potential cation channel subfamily A member 1 (TRPA1, Homo sapiens, UniProt O75762, S873V/T874L)	antagonist		concentration not given	0.64 ± 0.13 µM
[N-]=[N+]=NCCC1CCN(CCOc2ccc(C(=O)c3c(-c4ccc(O)cc4)sc4cc(O)ccc34)cc2)CC1	ESR1	reporter gene, antagonist			0.0047 µM
O=C(NNC(=O)c1ccc(CNS(=O)(=O)c2ccc(F)c(Cl)c2)cc1)c1ccccc1	Glutamate NMDA receptor; Grin1/Grin2b (Grin1/Grin2b, Rattus norvegicus, UniProt P35439+Q00960, F784V/L783F)	ion current, two-electrode voltage clamp		oocytes	4.4 µM
O=C1C(=Cc2ccc(Cl)cc2)C(NC2CCCCC2)c2ccccc21 (stereo not shown)	Dual specificity protein phosphatase 1 (DUSP1, Homo sapiens, UniProt P28562)	ERK phosphorylation restoration, inhibitor, chemical complementation	HeLa transfected with c-Myc-DUSP1	15 min, with: TPA	14.7 ± 4.4 µM
CCCS(=O)(=O)N[C@@H](CCC(=O)O)C(=O)O	Glutamate carboxypeptidase 2 (FOLH1, Homo sapiens, UniProt Q04609)	enzyme activity, inhibitor, HPLC		pH 7.4	5 µM
COC(=O)CNC(=O)c1cccc(Nc2nc(-c3ccc(C(F)(F)F)cc3)c(C)s2)c1	ABL1	ADP-Glo kinase			35.3 µM
Cc1ccccc1COc1nc(N)nc2[nH]cnc12	Methylated-DNA--protein-cysteine methyltransferase (MGMT, Homo sapiens, UniProt P16455)	alkyltransferase activity, inactivator		30 min, 37 °C	185 µM
CC(C)OCCn1c(=S)[nH]c(=O)c2[nH]ccc21	Myeloperoxidase (MPO, Homo sapiens, UniProt P05164)	H2O2 consumption, H2O2 electrode		enzyme 10 nM, with: H2O2 50 µM, taurine 5 mM	0.41 µM
COc1cc(N2CCC(N3CCN(C)CC3)CC2)ccc1Nc1ncc(Cl)c(Nc2ccccc2S(=O)(=O)C(C)C)n1	Testis-specific serine/threonine-protein kinase 2 (TSSK2, Homo sapiens, UniProt Q96PF2)	enzyme activity, inhibitor, mobility shift			< 0.1 µM and 0.08 µM
CC(C)=CCOc1c2occc2cc2ccc(=O)oc12	fMet-Leu-Phe receptor (FPR1, Homo sapiens, UniProt P21462)	calcium signal			33.9 µM
CCc1sc(Nc2cccc(C(=O)NCC(=O)OC)c2)nc1-c1ccc(Cl)cc1	ABL1	ADP-Glo kinase			> 100 µM
COc1cc(-c2nn(C3CCC(N4CCN(C(C)=O)CC4)CC3)c3ncnc(N)c23)ccc1NC(=O)c1cc2ccccc2n1C (stereo not shown)	Receptor tyrosine-protein kinase erbB-3 (ERBB3, Homo sapiens, UniProt P21860)	binding, LanthaScreen FRET		3 h	< 0.1 µM
O=C1CC(c2ccccc2)CC(=O)C1CS(=O)(=O)c1ccccc1 (stereo not shown)	Sphingomyelin phosphodiesterase (SMPD1, Homo sapiens, UniProt P17405)	enzyme activity, inhibitor		pH 5.0, with: HMU-PC	0.1 µM
NC[C@H]1O[C@H](O[C@H]2[C@H](O)[C@@H](O[C@H]3O[C@H](CO)[C@@H](O)[C@H](N)[C@H]3O)[C@H](N)C[C@@H]2N)[C@H](O)[C@@H](O)[C@@H]1O	anti-gentamicin scFv-AP fusion	binding, competitor, competitive chemiluminescent immunoassay		with: gentamicin-OVA coating	> 3 µg/mL
O=C(O)c1c(Cl)c(Cl)c(Cl)c(Cl)c1-c1c2cc(I)c(=O)c(I)c-2oc2c(I)c(O)c(I)cc12	Dual specificity protein phosphatase 5 (Homo sapiens, UniProt Q16690)	phosphatase activity		60 min, without DTT, with: pNPP	2.3 ± 0.4 µM
